Measurements collected from several papers.
Every numbered part comes from another study and shows a few of its results, in no order. Positions count from the first letter of the parent shown.

Study 1 — technique: EMSA with sequencing; molecule type: double-stranded DNA, one strand shown; medium: in vitro; concentration: 10 and 20 nM; relative to: negative control set to 0; reading: higher = stronger binding
Target: Hepatocyte nuclear factor 3-alpha (Foxa1, Mus musculus, UniProt P35582, residues 1-468, full length assumed)
Setting: whole designed probe, mean of two concentrations, ends assumed
Construct (chain): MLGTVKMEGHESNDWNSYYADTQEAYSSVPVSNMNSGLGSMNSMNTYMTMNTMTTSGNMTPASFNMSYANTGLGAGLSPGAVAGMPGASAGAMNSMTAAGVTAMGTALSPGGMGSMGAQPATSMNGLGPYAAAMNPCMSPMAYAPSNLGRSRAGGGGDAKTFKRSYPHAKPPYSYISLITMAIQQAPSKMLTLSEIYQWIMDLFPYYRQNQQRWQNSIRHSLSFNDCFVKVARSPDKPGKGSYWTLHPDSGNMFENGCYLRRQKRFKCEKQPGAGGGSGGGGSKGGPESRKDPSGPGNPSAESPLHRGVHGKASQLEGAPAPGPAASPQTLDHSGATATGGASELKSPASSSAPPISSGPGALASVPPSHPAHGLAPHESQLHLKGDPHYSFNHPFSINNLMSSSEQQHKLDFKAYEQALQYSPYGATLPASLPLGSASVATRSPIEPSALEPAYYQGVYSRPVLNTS
Under “normalised bound fraction”, `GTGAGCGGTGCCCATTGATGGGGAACCTTCTTTCCTTCCTTCTTTCTTTCTCTTTCCTGTTTAAGTGAAGTGTGCAGAGGCAGATTGGGGTAGATGTTTACCTCTGTTGACATCAATGTGTCATCTGCTTCCCACTGCCTCACTGGGCCAGGTGGGGGCAGAAACCCAGCTCTCCAATGGGTGACATCCACACAGGAGGCAGGGGGGAAGTAACCTGTCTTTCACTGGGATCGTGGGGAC` is recorded as 0.0508 ratio.
`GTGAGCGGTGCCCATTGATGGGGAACATCTTCCCCCTCTTCCTTGCCCCACCAGCTCACCTTCCCGGGTTATTTGCAGATAGGAAAATAAATAAAGCCGGCATTCGTTAACCCTCTGGTAGCCTACACTGCTGTTTGCTCTGGATGAATCATGGTCCTTTGGCGACGCCAGGCTCCGGGAGAGCAAAGCACCGTGTCAGGGCCATGATCCGGGGTGGCCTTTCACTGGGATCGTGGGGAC`: “normalised bound fraction” 0.366 ratio.
Under “normalised bound fraction”, `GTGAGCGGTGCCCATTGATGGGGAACCATTAGAGTCAAAGTTGTTAAGGGGAGCTAGTCATAGCTACCACGTGGCCAGGCATGTATGAATCATCAGGAACCAGACACCAGGCACATAAAGTAAATAGATGAATAATGCTGACAACCTAGTTCATAGTGACACACTACTTGAGATATATAGAATAACATTATTACCCAGTAAGTATGTGAACATTCCGATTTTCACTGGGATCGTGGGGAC` is recorded as 0.381 ratio.
Under “normalised bound fraction”, `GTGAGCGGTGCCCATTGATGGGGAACTGTATCCATCTGGGCAGTATCTTCTCTGGGCCTGGCCTGTCATAGGTGCTTCAGGTTTCCCCATTTGAACCAGATACCAGTCGGGTTACCGGATGTTTGCTTAAAATGAGTCATAGGCTACGTGCTATTCCTGTGCTGCTTCCAGCTAGGACTGATCGAATCAGTCTGGATTTTCCTTGGGGTGATCCGCAGGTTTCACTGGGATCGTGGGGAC` is recorded as 0.161 ratio.
`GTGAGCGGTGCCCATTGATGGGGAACAGAGCAACTGACAATCTCACACATTGCTAATGGAATAGTGGGTTTGGTGACTTGGAAGTGGGATGTTGAGGGCTTCTTGAAGGTTTTATTCAAGATTACTTTAATTGCCAACATTAGTTCTTACATAGGTATTTTCACAAAATAATGTATTGAGCTGTATACTTACTATTAGAGTACTTTTTCTTAATGCATTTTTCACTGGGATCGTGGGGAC` — result for “normalised bound fraction”: -0.0287 ratio.
For `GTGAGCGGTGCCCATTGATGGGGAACATCTTCCCCCTCTTCCTTGCCCCACCAGCTCACCTTCCCGGGTTATTTGCAGATAGGAAAATAAATAAAGCCGGCATTCGTTAACGCAGTTCACGCGCATACTGCTGTTTGCTCTGCATCTAACATGGTCCTTACGCGACGCCAGGCTCCGGGAGAGCAAAGCACCGTGTCAGGCGCATGATCCGGGGTGGCCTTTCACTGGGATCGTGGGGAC`, “normalised bound fraction” read 0.363 ratio.
For `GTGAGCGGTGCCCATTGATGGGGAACTTTCCTGGCTGGCAGTTCCTGGGAGGGAGGGGCTCCAGCAGCCGGGAGGCAGGGTGCCGGCCTGCAGTGGCCTATCTTGGTCCCTGCCCAGAGTAATTTAAGGCCGAGCATCTCAGCACGGCTGCCACACCCCCGACTCCACTTCCTCCCTTTGGGGATTCCTGTTGGCTTCTGTGTCCTAGCCTGGCACCCCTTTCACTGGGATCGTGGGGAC`, “normalised bound fraction” read -0.0854 ratio.
`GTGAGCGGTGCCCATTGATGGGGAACTTTTTCATGTATAAATATATAATTTTATTTAATATTTAGATTTTATTCTTTTCTCTGAATTCATTATATACTACAAAAGTTATGGCATCTCAATGTAATCTCAGATGCAGAAGAAAAGAGTTCTAATACCTTTATTACCTAAGAAGATAAAATATCATAGATGTGTGGAATTAAAAGAAAATTATCAAAGTCCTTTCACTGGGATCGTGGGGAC` — result for “normalised bound fraction”: 0.15 ratio.

Study 2 — technique: RNA Bind-n-Seq; molecule type: RNA; medium: in vitro; concentration: 365 nM; relative to: no-protein control; reading: higher = stronger binding
Target: RNA binding protein fox-1 homolog 2, RRM domain, GST-SBP tag (RBFOX2, Homo sapiens, UniProt O43251-10, residues 100-194)
Setting: natural RNA segment, single round, ends assumed
Residues (chain): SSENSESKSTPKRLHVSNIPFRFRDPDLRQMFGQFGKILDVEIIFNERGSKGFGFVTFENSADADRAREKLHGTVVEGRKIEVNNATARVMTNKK
Under “RBNS enrichment (R)”, `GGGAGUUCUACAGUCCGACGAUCGCUGGCCCAAUGGAGCCUUACAGAACUAAUCAGGACUUGUGGAGACCUCUGCACUGAACUUCCUAUAAGUAACUUCCACCACACUGGUUUCUACUCUCAGAACUGCCCCAUGGAAUUCUCGGGUGCCAA` is recorded as 0.479.
Under “RBNS enrichment (R)”, `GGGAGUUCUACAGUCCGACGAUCUUCCUUUUUGUCUCAGCAUAUAGUAUUAAGAUGCCUAGAAAUAGGACUCUAUUGUUCCCUCUUGUAUAGGCACUUUACAUUUCUUGUCACUACAGCAACCACAUACAGUAUGGAAUUCUCGGGUGCCAA` is recorded as 2.24.
For `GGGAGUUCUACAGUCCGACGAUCCUCCCUGGGGAACCUACUUUCUGCUCAGUGAGGCUCCGGCCAGAAACCUGGAGUCCUUAUCCUCCCCUCUGUAAGUGUUUUAGGGUCUGGCUUUUGCAGGCACCCUCUGAUGGAAUUCUCGGGUGCCAA`, “RBNS enrichment (R)” read 0.723.
For `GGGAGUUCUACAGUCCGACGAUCUUAAACUACAAAACUAAUAUGUAUGUGUACCAAACUGAUUUAAAAUAAAUGUUUAUUAGUCUCUUGAUCAAAAGUGUCAUAUUUUGAUUAUGAAAUUAACAUUGUGUUUGUGGAAUUCUCGGGUGCCAA`, “RBNS enrichment (R)” read 0.393.
Under “RBNS enrichment (R)”, `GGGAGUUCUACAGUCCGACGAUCCUCGCAUGACUACGGGGCCCCCCAGGAGGCGACUCUCGGGGCCAACAAGGUGAUCGAAGGCCUGGACACGGGCCUGCAGGGCAUGUGUGUGGGAGAGAGGCGGCAGCUCAUGGAAUUCUCGGGUGCCAA` is recorded as 1.78.
Under “RBNS enrichment (R)”, `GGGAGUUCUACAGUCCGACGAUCAAUCAGAUUAUUUUGUUUCUAGACAUCCUUGAAUUACACCAAAGAACAUGAAAUUUAGUUGUGGUUAAAUUAUUUAUUUAUUUCAUGCAUUCAUUUUAUUUCCCUUAAGGUGGAAUUCUCGGGUGCCAA` is recorded as 0.667.
`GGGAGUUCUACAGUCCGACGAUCGGAUGAGCUGCUUGAGCUGACCUGUUCAGAGACCGCCAUGUGCCCUGCCCACAUCCUUGCAUCACUGUUUGCCCUGCCUAUCUCUUUCCAAAUUGUCAACUCCCUUGCCCUGGAAUUCUCGGGUGCCAA`: “RBNS enrichment (R)” 2.94.
`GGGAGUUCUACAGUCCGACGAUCUGUGGGAGGGUAAGACAAUAUGAACAAACUAUGAUCACAGUGACUUUACAGGAGGUUGUGGAUGCUCCAGGGCAGCCUCCACCUUGCUCUUCUUUCUGAGAGUUGGCUCAUGGAAUUCUCGGGUGCCAA` — result for “RBNS enrichment (R)”: 0.626.
For `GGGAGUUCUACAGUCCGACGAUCAAAUUUAGACAGGGAUCUCUUACCUUUGGAAAAUAGGGGUUAGGCAUGAAGGUGGUUGUGAUUAAGAAGAUGGUUUUGUUAUUAAAUAGCAUUAAACUGGAAUUGACAAGUGGAAUUCUCGGGUGCCAA`, “RBNS enrichment (R)” read 1.13.
`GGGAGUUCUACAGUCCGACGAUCGCCGCCAGCUGGCACCUGCCUCUAUCCCAGACUGCCCUCGUCCCAGCUCUCUGUCCAACUGUUGAUUAUGUGAUUUUUCUGAUACGUCCAUUCUCAAAUGCCAGUGUGUUUGGAAUUCUCGGGUGCCAA` — result for “RBNS enrichment (R)”: 1.17.
`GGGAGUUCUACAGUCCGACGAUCUGACUCCUUAUUUUUUAAAUGUUUCCACAUUUUUGCUUGUGGAAAGACUGUUUUCAUAUGUUAUACUCAGAUAAAGAUUUUAAAUGGUAUUACGUAUAAAUUAAUAUAAAUGGAAUUCUCGGGUGCCAA`: “RBNS enrichment (R)” 0.774.
`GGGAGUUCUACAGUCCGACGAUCAAAUAGGGAGACUGACUGAGUAGCUCAUUCUUGUGACUUACAGUGCCAACAUUUAAAAAAGUAUGAAAAUGAUUUAUUUUUAUAUGAUGUAUACCCAUAAAGAAUGCUCAUGGAAUUCUCGGGUGCCAA` — result for “RBNS enrichment (R)”: 0.294.

Study 3 — target: CCNF, cyclin fold, Cln2 fusion (human); technique: yeast growth competition, sequencing; medium: yeast; setting: weak parent motif; relative to: not given; reading: higher = stronger binding
Starting sequence: PKN2 docking peptide (human); DSTVTKLDFDLEP; partner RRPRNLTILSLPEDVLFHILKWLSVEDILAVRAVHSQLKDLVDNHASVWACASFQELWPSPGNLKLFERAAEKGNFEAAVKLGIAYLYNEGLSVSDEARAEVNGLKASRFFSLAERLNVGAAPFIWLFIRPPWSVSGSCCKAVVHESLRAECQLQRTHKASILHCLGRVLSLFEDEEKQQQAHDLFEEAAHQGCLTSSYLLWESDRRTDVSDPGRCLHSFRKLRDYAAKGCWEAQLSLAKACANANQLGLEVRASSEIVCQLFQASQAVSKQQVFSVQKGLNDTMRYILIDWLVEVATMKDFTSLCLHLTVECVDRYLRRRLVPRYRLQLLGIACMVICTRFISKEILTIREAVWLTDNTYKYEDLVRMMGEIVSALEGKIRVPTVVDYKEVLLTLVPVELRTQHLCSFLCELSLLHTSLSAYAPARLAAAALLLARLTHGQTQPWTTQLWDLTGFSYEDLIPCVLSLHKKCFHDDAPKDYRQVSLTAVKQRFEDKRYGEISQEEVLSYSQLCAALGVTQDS
`F9A` — result for “normalised enrichment score”: -0.186.
`L11A` — result for “normalised enrichment score”: -0.0585.
`D1A`: “normalised enrichment score” 0.492.
For `D8A`, “normalised enrichment score” read -0.414.
For `S2A`, “normalised enrichment score” read -0.122.
`L7A` — result for “normalised enrichment score”: -0.42.
`E12A` — result for “normalised enrichment score”: -0.128.

Study 4 — technique: DHFR PCA, deep sequencing; medium: yeast; with: (+)-ABA 17 µM; relative to: wild-type fitted maximum; reading: higher = stronger binding
Target: ABI1, truncated, D143A, DHFR fusion (Arabidopsis thaliana)
Setting: methotrexate growth selection, single substitutions
Starting sequence: PYL1, truncated, DHFR fusion (Arabidopsis thaliana); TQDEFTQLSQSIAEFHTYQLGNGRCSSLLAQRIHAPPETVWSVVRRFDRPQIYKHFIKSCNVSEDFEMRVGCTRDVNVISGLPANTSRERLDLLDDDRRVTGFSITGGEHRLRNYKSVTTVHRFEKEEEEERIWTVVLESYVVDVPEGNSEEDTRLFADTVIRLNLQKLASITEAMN
`C60S` — result for “relative binding score”: 34.8%.
`V142R` — result for “relative binding score”: 63.3%.
`R132T` — result for “relative binding score”: 94.7%.
`R99N`: “relative binding score” 59.6%.
`F157Q` — result for “relative binding score”: -9.96%.
Under “relative binding score”, `D144F` is recorded as -11.1%.
`T119A`: “relative binding score” 14%.
`M68R` — result for “relative binding score”: 32.1%.
Under “relative binding score”, `Y115W` is recorded as 19.6%.
Under “relative binding score”, `G107R` is recorded as 12.9%.
For `G81W`, “relative binding score” read -4.49%.
Under “relative binding score”, `C25W` is recorded as -8.18%.
`I33M`: “relative binding score” 63.8%.
Under “relative binding score”, `R99T` is recorded as 13.7%.
`V118L`: “relative binding score” 48.4%.
`K54S` — result for “relative binding score”: -9.09%.
Under “relative binding score”, `R163C` is recorded as 36.7%.
For `T73W`, “relative binding score” read 71.4%.
Under “relative binding score”, `T17V` is recorded as 52.8%.
Under “relative binding score”, `Q2I` is recorded as 86.8%.
Under “relative binding score”, `F103K` is recorded as -23.4%.
For `S27Q`, “relative binding score” read 55.1%.
`E109M` — result for “relative binding score”: 59.2%.
`N177C`: “relative binding score” 99.7%.
`R155W` — result for “relative binding score”: -2%.

Mixed results
With `PhoQ, residues 284 288 289 292 302 303 AEGLLW` the fold induction was 12.4 (PhoP, residues 12 14 15 18 19 LYFRQ (Escherichia coli, UniProt P23836); Sort-seq, refers to: YFP reporter; E. coli; PhoQ-PhoP variant library, with: 10 µM Mg2+; relative to: high Mg2+ state, higher = stronger signaling).
